Results of several laboratories.
Parts stem from different laboratories: compare values within a part only. Changes are numbered by the printed parent chain.

Series 1
Target: RNA binding protein fox-1 homolog 2, RRM domain, GST-SBP tag (RBFOX2, Homo sapiens, UniProt O43251-10, residues 100-194)
Technique: RNA Bind-n-Seq
Form: RNA
Medium: in vitro
Concentration: 365 nM
Notes: natural RNA segment, single round, ends assumed
Baseline: no-protein control
Reading: higher = stronger binding
Quantity: RBNS enrichment (R)
All sequences stand within: GGGAGUUCUACAGUCCGACGAUC … UGGAAUUCUCGGGUGCCAA
Residues (chain): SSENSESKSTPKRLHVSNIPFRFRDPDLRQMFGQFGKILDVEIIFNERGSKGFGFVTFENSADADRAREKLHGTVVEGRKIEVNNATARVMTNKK
UAGAGAAGCAGGAGAACAGACAAUCUGGUGUCCAGCCCUAAAGAACCACCAGGCGCUGUUAAGCAAUACCUGGGGACGCACUAAAAUAGCUGCAGCGGGAUGCUGGGGAG: 0.353
CAGAGGACAGGGGCUAAUGAGCUGCUCAGAGCUGCCCUGCCCCUGCUUCUGAACACUGCUUUCCACACAAGCACGGGCAAGUCCCCUUUACCCUUGGAUCAGCCAAGCCA: 0.28
UGCUCUUCCAAUGCCCAAGGCAUGGCAUGGUGGCAGCUGUGCCCCCGCCCAUUGCUUUGGAGCACAGAUGACUCUGGGGGCAGAGGUGGGCUCUGUUUAGGAGGGCAGUG: 0.708
UAGGAGAGAAUAAAGGGCUAUAUAAUAAUAAAUCCAGAUUUCCGGAUAAGAAUAUUGCCUGGUUAAAAUUCUGCAUUGCUUAAAGACACCCAUGUUUAAGAUUUUUCAUC: 1.45
AAGGGAACUAUGCCCUGGGCCAGGGCGAAUGCGUGGCUGGGCAGUGCCCAUCAUGGCAUUUUCACAUGUCCCAUAUGCCCCUCCUGUCUUAUUCCACUGCUUCUCCCAGC: 0.749
UCUAUUACUCUUACACUUUAGUUUUACCAUUUGAGUAGCCACUUAUUCACCAGAGUUGGAAUUGAGAAAUUUUGGGCUUUCCAAAAUUAACCUUUAAACUUAAAAUUGAU: 0.455
UGGCUCUGGGGAGAUUUCUAGUAACUCUUCAAUCUGUACUUUCUGUGCCCGCCUCGGUUUUGAGUUGCAUUUUUUUUUUCUGUUGUUAGACAAACCAGGGCUUUGUAUGC: 2.48
ACAGUCUAUUAAAAUUCAGCCCUAAAAUGACAAAGCCUUCUUAAAGCCUUAUUUUUAAAAUCCCCCAUUCUUGCUCAGAUUAAAAAUUGCCAAAAUACCUUCUGAACUAA: 0.948

Series 2
Target: CCNB2, cyclin fold, Cln2 fusion (human)
Technique: yeast growth competition, sequencing
Medium: yeast
Notes: strong parent motif
Baseline: not given
Reading: higher = stronger binding
Quantity: normalised enrichment score
Starting sequence: MICAL3 docking peptide (human); LQLRRQLSFSEDS; partner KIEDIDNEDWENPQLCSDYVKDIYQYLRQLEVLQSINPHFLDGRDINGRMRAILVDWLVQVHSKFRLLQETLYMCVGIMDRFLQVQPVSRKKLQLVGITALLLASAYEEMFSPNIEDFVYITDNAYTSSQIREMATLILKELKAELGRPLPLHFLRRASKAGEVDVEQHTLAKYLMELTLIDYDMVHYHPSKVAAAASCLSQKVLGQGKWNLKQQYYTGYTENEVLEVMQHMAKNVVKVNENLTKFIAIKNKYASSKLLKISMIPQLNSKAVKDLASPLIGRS
LQLRRRLSFSEDS [Q6R]: 4.92
LQMRRQLSFSEDS [L3M]: 1.66
LQLRRQLSFSTDS [E11T]: 1.85
LQLYRQLSFSEDS [R4Y]: 1.58
LQKRRQLSFSEDS [L3K]: -0.0704
LQLRRQLAFSEDS [S8A]: 0.582
LQSRRQLSFSEDS [L3S]: 0.463
LQLRWQLSFSEDS [R5W]: 0.326
LQLRRGLSFSEDS [Q6G]: 0.434
LGLRRQLSFSEDS [Q2G]: 3.32
LQLRMQLSFSEDS [R5M]: 0.441
LQLRRQLNFSEDS [S8N]: 1.62
LQLRRQLSDSEDS [F9D]: -0.507
LQLIRQLSFSEDS [R4I]: 1.37
LQLDRQLSFSEDS [R4D]: -0.0235
LQLRRQLSFSEIS [D12I]: 2.85
LQLRRQNSFSEDS [L7N]: -0.164
LYLRRQLSFSEDS [Q2Y]: 2.49
LQLRRQLSCSEDS [F9C]: 0.246
LQLRSQLSFSEDS [R5S]: 0.11
LQLRRQLSFSEMS [D12M]: 2.99
LQLRRQVSFSEDS [L7V]: 0.0737
LQLRRQLSFYEDS [S10Y]: 1.3
LQLRRQLSFSETS [D12T]: 2.55
LQLWRQLSFSEDS [R4W]: 0.979

Series 3
Target: Interferon regulatory factor 7, full length, phosphomimetic (IRF7, Homo sapiens, UniProt Q92985, residues 1-503, S101K/S471D/S472D/S475D/S476D/S477D/S483D/S484D/S487D)
Sequence of UniProt Q92985 (whole entry, unmodified, looked up): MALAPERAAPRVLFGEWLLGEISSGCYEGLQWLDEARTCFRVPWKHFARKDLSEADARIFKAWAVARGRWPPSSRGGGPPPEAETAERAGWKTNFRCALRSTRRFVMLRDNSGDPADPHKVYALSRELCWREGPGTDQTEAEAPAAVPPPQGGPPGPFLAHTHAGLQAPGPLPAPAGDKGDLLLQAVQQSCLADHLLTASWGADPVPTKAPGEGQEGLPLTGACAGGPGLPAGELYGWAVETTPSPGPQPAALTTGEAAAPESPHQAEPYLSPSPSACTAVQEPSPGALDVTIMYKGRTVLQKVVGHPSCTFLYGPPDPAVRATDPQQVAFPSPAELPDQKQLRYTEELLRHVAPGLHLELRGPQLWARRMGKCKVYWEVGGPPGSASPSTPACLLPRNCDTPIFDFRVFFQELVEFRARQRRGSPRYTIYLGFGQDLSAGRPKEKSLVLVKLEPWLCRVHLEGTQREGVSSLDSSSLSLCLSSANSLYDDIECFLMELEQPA
Technique: protein-binding microarray
Form: double-stranded DNA, one strand shown
Medium: in vitro
Concentration: 250 nM
Notes: 60-bp whole probe
With: salmon DNA 0.4 mg/ml
Baseline: random background probes
Reading: higher = stronger binding
Quantity: log fluorescence
All sequences stand within: GCCTAGCAC … GTCTTGATTCGCTTGACGCTGCTG
TCAAATCTCACTCTGTCACTGTGCTAG: 0.283 z-score
TTAGATATCAGACTCGATTAGTGCTAG: 1.32 z-score
TCAGCTTTCTTTATGTAACTGTGCTAG: 0.361 z-score
TTAGATATCAGTCTCGAGTAGTGCTAG: 0.36 z-score
TCATCTATCAAAAATACAACTGTGCTA: 0.357 z-score
TTAGCTATCGGGTTTCGATTAGTGCTA: 5.36 z-score
TTAGGACTGGGGACTGTGTTAGTGCTA: -0.639 z-score
GACGGTTCCGGTTTCTGGACGTGCTAG: 5.99 z-score
GACGATGTCAGACTGGAGACGTGCTAG: -0.406 z-score
TTAGGTTCCCTTATCCTTTAGTGCTAG: 1.39 z-score
TCACCCCTCTCATTCCAACTGTGCTAG: 0.191 z-score
GCCGATTTCAGTATCGAGACGTGCTAG: 0.898 z-score
TCCCCTTCTACTCTCCTGCAGTGCTAG: 1.03 z-score
CAACCTTTGTTTTTTTCTATGTGCTAG: 0.463 z-score

Series 4
Target: Sal-like protein 4, full length isoform B (SALL4, Homo sapiens, UniProt Q9UJQ4-2, residues 1-616)
Technique: universal PBM
Form: double-stranded DNA, one strand shown
Medium: in vitro
Concentration: not given
Notes: 8-mer, flanks averaged, mean of replicates
Reading: higher = stronger binding
Quantity: E-score
Residues (chain): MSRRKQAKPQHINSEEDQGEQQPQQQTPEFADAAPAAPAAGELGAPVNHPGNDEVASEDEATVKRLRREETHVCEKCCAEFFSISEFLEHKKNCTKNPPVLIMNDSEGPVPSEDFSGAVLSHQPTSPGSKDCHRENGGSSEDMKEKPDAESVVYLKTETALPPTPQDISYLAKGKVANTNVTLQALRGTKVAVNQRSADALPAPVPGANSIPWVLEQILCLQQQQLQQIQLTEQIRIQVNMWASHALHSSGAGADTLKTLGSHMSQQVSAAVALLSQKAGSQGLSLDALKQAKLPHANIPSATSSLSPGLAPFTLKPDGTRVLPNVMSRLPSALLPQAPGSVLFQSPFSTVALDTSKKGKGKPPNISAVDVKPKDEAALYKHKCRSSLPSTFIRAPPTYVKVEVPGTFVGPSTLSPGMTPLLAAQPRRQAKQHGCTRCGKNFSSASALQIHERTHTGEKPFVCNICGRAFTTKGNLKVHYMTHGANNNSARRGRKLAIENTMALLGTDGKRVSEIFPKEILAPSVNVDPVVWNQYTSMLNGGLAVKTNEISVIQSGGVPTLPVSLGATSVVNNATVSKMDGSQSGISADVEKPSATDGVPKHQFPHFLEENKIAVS
AAGGTTGG: -0.0818
ACCGAAAA: 0.211
CCAGTCAC: -0.152
ACTCCCTA: 0.095
AAAGCTCG: -0.179
AAGCTCTA: 0.0393
GACAGTGA: -0.122
AAGCTTCG: -0.196
CAACGTAC: 0.0579
CTCTAAAC: -0.0343
ATCACAGC: 0.0942
GTCGGTGA: -0.176
AAGTCTCC: -0.0253
TAACTCCA: 0.0927
ATTCGACG: 0.0338
AGTGTAGA: 0.0198
TCATTGGA: 0.00941
ACTAGCAC: -0.101

Some of these lines once more (series 2):
LQLRMQLSFSEDS [R5M]: 0.441
LQLRRQLNFSEDS [S8N]: 1.62
LQLRRQLSDSEDS [F9D]: -0.507
LQLIRQLSFSEDS [R4I]: 1.37
LQLDRQLSFSEDS [R4D]: -0.0235
LQLRRQLSFSEIS [D12I]: 2.85
LQLRRQNSFSEDS [L7N]: -0.164
LYLRRQLSFSEDS [Q2Y]: 2.49
